# Results from different studies.
# Every numbered part comes from another study and shows a few of its results, in no order.

# Series 1 — technique: protein-binding microarray; form: double-stranded DNA, one strand shown; sample: in vitro; concentration: 0.8 µM; notes: whole 60-bp probe, no competitor; direction: higher = stronger binding
# Target: Centromere-binding protein 1, full length, N-terminal tag (CBF1, Saccharomyces cerevisiae, UniProt P17106, residues 1-351)
# Sequence of UniProt P17106 (whole entry, looked up): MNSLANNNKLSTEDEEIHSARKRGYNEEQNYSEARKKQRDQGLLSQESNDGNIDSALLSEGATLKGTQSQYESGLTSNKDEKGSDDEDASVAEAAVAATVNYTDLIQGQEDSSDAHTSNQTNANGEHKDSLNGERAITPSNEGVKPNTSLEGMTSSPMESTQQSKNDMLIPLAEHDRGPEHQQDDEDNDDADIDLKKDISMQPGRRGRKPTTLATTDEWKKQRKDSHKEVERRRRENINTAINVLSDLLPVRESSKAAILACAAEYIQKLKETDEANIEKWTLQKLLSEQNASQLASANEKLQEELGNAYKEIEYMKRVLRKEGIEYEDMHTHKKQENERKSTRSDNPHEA
Oligonucleotide,fluorescence intensity [a.u.]
CTAGTAGAAAAGTATTACATCAGCACGAGTAACTTCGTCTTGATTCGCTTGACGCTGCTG,651
CCTAACTACTATAGTGGTCGCGCATAGCTTCGTACAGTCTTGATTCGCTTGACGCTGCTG,494
CTAACATACCCACAATATGTGACTATTGGCAAATTCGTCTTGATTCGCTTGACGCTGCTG,530
CTATTCTTTGCATGTCACCATTGGGATCGGTGATTCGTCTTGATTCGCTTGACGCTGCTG,544
CTACTAATAAGAACGGTGATGATGGTTATTATGTTCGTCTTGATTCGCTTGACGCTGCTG,525
TGTACGAAGCTATCTTCCGTGCATATAGTAGTTAGGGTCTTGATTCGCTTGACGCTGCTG,526
GAACTAGTCACGGAGCACGAGAGGTAAAGAATTTAGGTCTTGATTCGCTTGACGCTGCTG,981
CCTAACTACTATAATCATGCTGCATAGCTTCGTACAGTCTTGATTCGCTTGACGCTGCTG,536
TGTACGAAGCTATAGATGGTGACTATAGTAGTTAGGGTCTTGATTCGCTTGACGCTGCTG,545
CTAGATAGATGGCCGAACGTGGACTGCCTCTATTTCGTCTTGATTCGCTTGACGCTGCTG,500
CTAGTGGCTCACACACATGTGGGCGCTATCCCCTTCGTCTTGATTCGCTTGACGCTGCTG,530
CCTAACTACTATAATAGTGTGACATAGCTTCGTACAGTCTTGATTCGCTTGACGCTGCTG,555
GAAGACAGAGTAGATGACATCACTGAGGTCCTTTAGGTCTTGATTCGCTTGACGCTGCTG,523
CTATTTTTTAACTGCACGTGCATCAAGGGGATCTTCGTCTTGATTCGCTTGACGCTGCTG,12600
GAATTTTACTTGCACGTGACCAAGAATGGTAATTAGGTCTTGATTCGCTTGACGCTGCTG,35400
GAAGCTGTGAAGAGTGGTGTGGATCCAAACGCGTAGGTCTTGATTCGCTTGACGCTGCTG,486
CTAATATATATAGAACACCACCCTTGGAAAACATTCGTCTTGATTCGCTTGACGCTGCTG,507
CTACCCCAAAGTGGTCATGTTAAGGAGGGCATTTTCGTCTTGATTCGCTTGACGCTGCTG,490
CCTAACTACTATAGTCAGGAGGTATAGCTTCGTACAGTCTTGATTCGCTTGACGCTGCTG,585
CTATCAGCTTTAGCAAGCGTGCATGCAAATAAGTTCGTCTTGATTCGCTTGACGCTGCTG,564
CTAGTTGTCGTACCCCATGTGCCCTATTCTTTGTTCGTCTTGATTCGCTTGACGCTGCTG,641
CTATCTCGACTATTTTGCGTGACACTTCCTTAGTTCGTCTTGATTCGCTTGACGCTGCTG,607
GAACGCTACAAACGTGGTGGAGTTTTAACCCTATAGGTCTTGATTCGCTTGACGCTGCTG,531
CTACGCCGTCGGAGTGACATCAAGTACCATAGATTCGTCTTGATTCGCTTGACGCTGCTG,515

# Series 2 — technique: protein binding microarray; form: double-stranded DNA, one strand shown; sample: in vitro; concentration: not given; relative to: not given; direction: higher = stronger binding
# Target: Histone acetyltransferase KAT6A, winged helix 1, GST fusion (KAT6A, Homo sapiens, UniProt Q92794, residues 1-85)
# Notes: 8-mer, flanks averaged, mean of 2 arrays, mostly near background
# Target sequence (chain): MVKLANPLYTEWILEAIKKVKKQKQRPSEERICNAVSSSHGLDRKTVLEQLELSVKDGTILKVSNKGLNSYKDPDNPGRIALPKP
Oligonucleotide,E-score
AACCACTG,-0.122
GACGTGAA,-0.048
AGGGGGCA,-0.0673
AACGCCGT,0.387
AGTTTCCC,-0.106
CTTTTCCC,-0.0941
CCGGTTAA,0.309
CGGGAGTA,0.243
GAATCTGC,-0.0912
ATACATCC,-0.00176
AAACTCGG,0.0642
ATCGGCTA,0.0929
CAGGGGGG,-0.241
CACACTTC,-0.147
GAAATCTC,-0.0704
CGGGGTAC,0.288
ATCAAATA,-0.188
ACGCCATG,-0.048

# Series 3 — technique: RNA Bind-n-Seq; form: RNA; sample: in vitro; concentration: not given; relative to: input RNA pool; direction: higher = stronger binding
# Target: RING finger protein unkempt homolog, zinc fingers 1-6, GST-SBP tag (UNK, Homo sapiens, UniProt Q9C0B0, residues 30-357)
# Sequence of UniProt Q9C0B0 (30-357, looked up): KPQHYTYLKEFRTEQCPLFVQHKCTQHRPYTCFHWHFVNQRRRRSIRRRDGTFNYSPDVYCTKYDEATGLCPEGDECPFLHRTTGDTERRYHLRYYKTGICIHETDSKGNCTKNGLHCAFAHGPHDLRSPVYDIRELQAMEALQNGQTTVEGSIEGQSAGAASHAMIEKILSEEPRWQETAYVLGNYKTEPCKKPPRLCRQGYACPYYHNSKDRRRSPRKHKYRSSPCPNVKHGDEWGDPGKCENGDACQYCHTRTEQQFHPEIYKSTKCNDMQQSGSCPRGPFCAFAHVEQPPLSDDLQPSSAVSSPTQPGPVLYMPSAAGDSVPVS
# Notes: RNA with constant flanks, human-mouse chimeric sites, ends assumed
Oligonucleotide,bound/input enrichment [ratio]
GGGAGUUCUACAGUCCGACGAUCAACGUGGAGUUGAGUUCGCUGGCCCGGCUUCCCAGCUUGAAUAAACUCCGGAAGUUGGAACUUAGUGAUAAUAUAAUUUCUGGAGGCUUGGAAGUCCUGGCAGAGAAAUGUCCAAAUCUUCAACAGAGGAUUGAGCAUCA,2.05
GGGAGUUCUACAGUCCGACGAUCAAAGAGUGGAUAGAGUGUGCACACGGGAUCGGUGGGACUCGGGCAGAAAAGGAGUGCAAGAUAGAGUUCGAUGACUUCGAAGAGUGCUUGCUUCGGUAGAAAACGAUGAGGCGAAUGCAUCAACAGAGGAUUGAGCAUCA,0.491
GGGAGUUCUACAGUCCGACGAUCUUGAAAACUGAUUCAAGUAAGUUUGAGUAUCACAAUGUUAGCUUUCUAAUUCCAUAAAAGUACUUGGUUUUUACAGUUUAUAAUCUGCAAUCCAUCAAGCGCCAUUUAGAUCAGCUUACUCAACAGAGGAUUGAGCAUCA,0.345
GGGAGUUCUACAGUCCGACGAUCAAAGAGAAACUAAAGCAACUAAUAGAGGAAGAGGAUUGCAAAGAGAAUUUCAUAGAGAAACUAGGAUUUAUUAGCAAAACAUGAGUUUAUUCCAGAGCGUCUCAGAAACCCCAGCCAAACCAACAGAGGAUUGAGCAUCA,9.39
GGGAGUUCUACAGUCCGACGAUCGCAUAUGGUUAUCGAGGAAAGGACUGUAGAGCGAAUGUAUACCUGCUUCCCACAGGGGAGAUAGUUUAUUUUAUCGCCUCAGUGGUAGUACUAUUUAAUUAUGAGGAGAGGACUCAGCGACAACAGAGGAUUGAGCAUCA,2.98
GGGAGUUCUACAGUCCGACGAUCUCCUGGUCGUGUCCCAGUGCAGGACGAUGUGAACAAAAACUCAAAGCGGACCCUCUAUUGUAGUUCUUGAUUCUCGAAAUGUGCUAUUAUUGUUUGUCUUUUUUUUUAAAAGAAAAGAGACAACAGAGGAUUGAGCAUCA,0.301
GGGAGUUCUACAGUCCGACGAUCAGAUUCCCCCUCCUGAGACCUCCUCCGAAGUUGGAGUCUCUUACAGAUGGUUCAUCUCCUGUUAGCGUUUUAGUUUGGACCACCCAGCCUUGGACGAUUCCCGCCAACCAGGCAAUUUGCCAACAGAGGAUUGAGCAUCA,1.74
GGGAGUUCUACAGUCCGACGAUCCCCCAAUUACCAUCUGUGGUCUGGAACUGCACUCUCUUUAAAGUUUUACAUGUAUACAUUUUAGGGCUGUAGAUUUAUUUUCCUGGUUUUGUUUUUCAUUGCUGACUUUUGAGCACAGAACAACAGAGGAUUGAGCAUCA,2.03
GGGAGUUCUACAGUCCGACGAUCGAUCAUGAACCACCAUCAGAAAUGAAGAUGAGAUUACCCAGACGAGCCCAAAACCGCGCGCUACAGAAAAGUAAACUUAACCUUGCAGAGUUCCUUAAUGAAGAUACAAGUUAAGAGAGCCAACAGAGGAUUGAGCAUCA,0.204
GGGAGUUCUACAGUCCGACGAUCGAAAGAGAACUAAAGCAAACUGAUUGAAAGAGGAUUGGCAAAGAGAAUUUCAUAGAGAAACUAGGAUUUAUUAGCAAACAUGAGUUAUAUUCCAGAGCGUCUCAGAAACCCCAGCCAAACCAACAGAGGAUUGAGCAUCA,3.3
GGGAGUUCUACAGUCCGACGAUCCUGUGACCACAAGAUCCUACCUGAGUGGCAGCUGAAGUUGACUCCCUCUCCUUGCCUGAACCCCCCCCCACUGCCCCCCCAUCCCCCGCAGAAUUCCAUUCUCUGGUCUCUGCACGGUUCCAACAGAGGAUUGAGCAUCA,1.32

# Series 4 — technique: universal PBM; form: double-stranded DNA, one strand shown; sample: in vitro; concentration: not given; direction: higher = stronger binding
# Target: Sal-like protein 4, full length isoform B (SALL4, Homo sapiens, UniProt Q9UJQ4-2, residues 1-616)
# Notes: 8-mer, flanks averaged, mean of replicates
# Residues (chain): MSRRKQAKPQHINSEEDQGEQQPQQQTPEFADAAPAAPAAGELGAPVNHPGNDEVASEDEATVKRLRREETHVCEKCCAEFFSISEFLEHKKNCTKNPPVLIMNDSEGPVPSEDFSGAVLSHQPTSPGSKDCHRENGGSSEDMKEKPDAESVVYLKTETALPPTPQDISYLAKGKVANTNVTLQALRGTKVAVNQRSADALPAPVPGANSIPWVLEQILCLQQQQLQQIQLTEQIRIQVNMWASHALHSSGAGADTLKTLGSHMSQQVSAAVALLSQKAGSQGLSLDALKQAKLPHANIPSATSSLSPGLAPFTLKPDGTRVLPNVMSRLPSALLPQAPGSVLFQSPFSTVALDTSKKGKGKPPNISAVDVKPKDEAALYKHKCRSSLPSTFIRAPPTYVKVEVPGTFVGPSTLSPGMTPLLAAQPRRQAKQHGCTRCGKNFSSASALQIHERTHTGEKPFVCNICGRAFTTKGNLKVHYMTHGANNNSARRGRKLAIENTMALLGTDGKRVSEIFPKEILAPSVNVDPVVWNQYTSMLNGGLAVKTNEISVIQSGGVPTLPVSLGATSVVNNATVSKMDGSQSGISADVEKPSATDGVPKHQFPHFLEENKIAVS
Oligonucleotide,E-score
AAACGGTT,-0.0779
CCTGAGAG,-0.229
CTATGGAC,-0.0767
CTAAGAAG,0.157
ATTAAATC,0.254
ATTTATCC,0.287
AGACGGGG,-0.314
AGGAGCGG,-0.3
GGCGTCAA,-0.199
ACTCTCAC,-0.0149
AGCTGACC,-0.187
CGTGAAAG,0.126
GAAAGTAA,0.248
CGACTGCA,-0.108
CATTTGTC,0.205
ATAGTGGA,0.171
AATCACCT,0.12
ATACGGTA,0.202
ATAATTTG,0.394
